Results from different studies.
Protocols differ between the studies behind these lines. ± gives the spread as reported.

| SMILES | organism | test | test system | setting | EC50 |
| --- | --- | --- | --- | --- | --- |
| Cn1c([N+](=O)[O-])cnc1COc1ccc(S(C)(=O)=O)cc1 | Leishmania donovani |  | LdBOB wild-type promastigotes |  | 8100 ± 100 nM |
| c1cc(CN2CCCNCCNCCCNCC2)ccc1CN1CCCNCCNCCCNCC1 | HIV-2 | viral replication | MT-4, ROD |  | 0.0122 µg/mL |
| C[C@H]1CN(c2n[nH]c3nc(N[C@H]4CC[C@H](NS(=O)(=O)CCC(F)(F)F)CC4)ncc23)CCO1 | Leishmania donovani | cell growth | promastigotes, LdBOB CRK6 single knockout |  | 7 ± 0.09 nM |
| COC(=O)N[C@H](C(=O)N1CCC[C@H]1c1ncc(-c2ccc(-c3ccc(-c4cnc([C@@H]5CCCN5C(=O)[C@@H](NC(=O)OC)C(C)C)[nH]4)cc3)cc2)[nH]1)C(C)C | Hepatitis C virus | replicon replication, transient replicon | Huh-7, genotype 2a JFH-1 |  | 0.0035 to 0.02 nM |
| C[C@H](Cn1cnc2c(N)ncnc21)OCP(=O)(O)O | HIV-2 | viral cytopathic effect | MT-4, ROD |  | 2060 nM |
| CCC(C(=O)Nc1sc(C(N)=O)c(C)c1C(=O)OC)c1ccc(F)cc1 (stereo not drawn) | human alphaherpesvirus 1 | viral replication | Vero | 53 h | > 100000 nM |
| CC(C)C[C@H](NC(=O)OCc1ccccc1)C(=O)N[C@H](C=O)C[C@@H]1CCCNC1=O | Norovirus | viral replication | HG23 replicon cells | 96 h | 5670 ± 1500 nM |
| CCC(C)n1ncn(-c2ccc(N3CCN(c4ccc(OCC5COC(Cn6cncn6)(c6ccc(Cl)cc6Cl)O5)cc4)CC3)cc2)c1=O (stereo not drawn) | CVA21 | viral replication |  | 72 h | 770 ± 110 nM |
| O=c1[nH]c(=O)n([C@H]2C[C@H](O)[C@@H](CO)O2)cc1/C=C/Br | varicella-zoster virus | viral replication | HEL, 07-1 TK- |  | 5890 nM |
| CNCC(=O)N[C@@H](CO)C(=O)N[C@H]1[C@H](O)[C@@H](O)[C@H](n2ccc(N)nc2=O)O[C@@H]1C(N)=O | tobacco mosaic virus | curative activity | in vivo plant |  | 331 ± 2.8 µg/mL |
| O=c1[nH]c(=O)n([C@H]2C[C@H](O)[C@@H](CO)O2)cc1/C=C/Br | varicella-zoster virus | plaque formation | HEL, Oka, TK- |  | 107000 nM |
| CC(C)(C)[C@H](NC(=O)C(F)(F)F)C(=O)N1C[C@H]2[C@@H]([C@H]1C(=O)N[C@H](C#N)C[C@@H]1CCNC1=O)C2(C)C | HCoV-OC43 | viral replication | Huh-7 | 48 h | 290 nM |

Repeated from above:
| SMILES | organism | test | test system | setting | EC50 |
| --- | --- | --- | --- | --- | --- |
| CC(C)(C)[C@H](NC(=O)C(F)(F)F)C(=O)N1C[C@H]2[C@@H]([C@H]1C(=O)N[C@H](C#N)C[C@@H]1CCNC1=O)C2(C)C | HCoV-OC43 | viral replication | Huh-7 | 48 h | 290 nM |
